Measured values from different studies.
Each numbered part is a random draw from the data of one study; scales do not carry over between parts. “And” joins repeats or separate records; there may be more than shown. Positions count from the first letter of the parent shown.

Series 1
Target: HLA class I histocompatibility antigen, C alpha chain, allele C*04:01 (Homo sapiens, UniProt P10321)
Effect on: peptide-MHC binding
Molecule type: peptide
Concentration: concentration not given
`SYGCPTNPF`: binding “inactive”.
`SMFERDFHF` — result for binding: “inactive”.
`RVMAPRALL`: binding “inactive”.
Under binding, `ETTNWLWAF` is recorded as “inactive”.
For `RPREATIIY`, binding read “inactive”.
`MMFDAMGAL` — result for binding: “inactive”.
For `MSPDNALIY`, binding read “inactive”.
`MWHVTRGAF`: binding “inactive”.
Under binding, `KYLPNGDYI` is recorded as “inactive”.
For `KGPPAALTL`, binding read “inactive”.
Under binding, `ASMDNTSPM` is recorded as “inactive”.
For `YTIYGAWMF`, binding read “inactive”.
Under binding, `RPMTYKAAL` is recorded as “inactive”.
For `ISPRNYFTF`, binding read “inactive”.
`FMFDSDEAM`: binding “inactive”.
`LYPTFYCLF`: binding “inactive”.
`SEMGANFRA`: binding “inactive”.
`REWFMDLNL` — result for binding: “inactive”.

Series 2
Target: Interferon regulatory factor 5, full length, phosphomimetic (IRF5, Homo sapiens, UniProt Q13568-2, residues 1-514, S451D/S453D/S456D/S462D)
Method: protein-binding microarray
Molecule type: double-stranded DNA, one strand shown
Matrix: in vitro
Concentration: 940 nM top
Notes: 60-bp whole probe
Together with: salmon DNA 0.4 mg/ml
Relative to: random background probes
Reading: higher = stronger binding
All sequences stand within: GCCTAGCAC … GTCTTGATTCGCTTGACGCTGCTG
`TTAGGACTGGACCCTGGGTTAGTGCTA`: “fitted relative affinity” -0.629 z-score.
`TCATCCATGCTCTGTCGCACTGTGCTA` — result for “fitted relative affinity”: 0.0415 z-score.
`GACGGTATCGGTACTGGGGACGTGCTA` — result for “fitted relative affinity”: 7.23 z-score.
`TTTGGTATCCTTATCCTTTAGTGCTAG` — result for “fitted relative affinity”: 1.12 z-score.
`TTAGGCATCGGGTTTCGGTTAGTGCTA` — result for “fitted relative affinity”: 5.54 z-score.
Under “fitted relative affinity”, `TCAAGAAAAAGAAAAAAAACTGTGCTA` is recorded as -0.0825 z-score.
`GACGATCTCAGACTGCAGACGTGCTAG` — result for “fitted relative affinity”: -0.495 z-score.
`TTAGAACTGGGGTATCGATGAGTGCTA` — result for “fitted relative affinity”: 1.87 z-score.

Series 3
Target: CCND1, cyclin fold, Cln2 fusion (human)
Method: yeast growth competition, sequencing
Matrix: yeast
Notes: weak parent motif
Relative to: not given
Reading: higher = stronger binding
Starting sequence: viral docking peptide; KKVKRRLFETREL
`K2A` — result for “normalised enrichment score”: 0.342.
`L7A`: “normalised enrichment score” 0.179.
`K1A` — result for “normalised enrichment score”: 0.296.
Under “normalised enrichment score”, `R5A` is recorded as 0.268.
`V3A` — result for “normalised enrichment score”: 0.298.
For `F8L`, “normalised enrichment score” read 0.0333.
For `R5A L7A`, “normalised enrichment score” read 0.105.
Under “normalised enrichment score”, `F8A` is recorded as -0.369.
Under “normalised enrichment score”, `R11A` is recorded as 0.286.

Mixed results
The viability of `CC(C)S(=O)(=O)c1cc2c(Nc3ccc4sc(C5CCCC5)nc4c3)ccnc2cc1OCCO` is reported as 8.1% and 8.19% and 15% and 8.65% (L929; CCK-8; 100 µM).
`CHD3 (Homo sapiens, UniProt Q12873)`: interaction screen “cross-linked” (CHD5 (Homo sapiens, UniProt Q8TDI0); cross-linking MS; hits only).
`CC[C@H](C)c1nc2cc(Nc3ccnc4ccc(S(=O)(=O)C(C)C)cc34)ccc2s1.Cl` has a viability of 89.8% and 55.4% and 66.9% and 53.8% (HT-29; necroptosis protection, CCK-8; 5 µM, together with: TNF-α SMAC mimetic zVAD).

A few entries again (series 3):
Under “normalised enrichment score”, `R11A` is recorded as 0.286.
`K1A` — result for “normalised enrichment score”: 0.296.
For `F8L`, “normalised enrichment score” read 0.0333.
Under “normalised enrichment score”, `R5A` is recorded as 0.268.
`V3A` — result for “normalised enrichment score”: 0.298.
